Measurements from different studies.
Numbered parts are unrelated; each lists some results of a single study. pIC50: −log10 of the molar value.
Chain of UniProt Q8N568 (whole entry, looked up): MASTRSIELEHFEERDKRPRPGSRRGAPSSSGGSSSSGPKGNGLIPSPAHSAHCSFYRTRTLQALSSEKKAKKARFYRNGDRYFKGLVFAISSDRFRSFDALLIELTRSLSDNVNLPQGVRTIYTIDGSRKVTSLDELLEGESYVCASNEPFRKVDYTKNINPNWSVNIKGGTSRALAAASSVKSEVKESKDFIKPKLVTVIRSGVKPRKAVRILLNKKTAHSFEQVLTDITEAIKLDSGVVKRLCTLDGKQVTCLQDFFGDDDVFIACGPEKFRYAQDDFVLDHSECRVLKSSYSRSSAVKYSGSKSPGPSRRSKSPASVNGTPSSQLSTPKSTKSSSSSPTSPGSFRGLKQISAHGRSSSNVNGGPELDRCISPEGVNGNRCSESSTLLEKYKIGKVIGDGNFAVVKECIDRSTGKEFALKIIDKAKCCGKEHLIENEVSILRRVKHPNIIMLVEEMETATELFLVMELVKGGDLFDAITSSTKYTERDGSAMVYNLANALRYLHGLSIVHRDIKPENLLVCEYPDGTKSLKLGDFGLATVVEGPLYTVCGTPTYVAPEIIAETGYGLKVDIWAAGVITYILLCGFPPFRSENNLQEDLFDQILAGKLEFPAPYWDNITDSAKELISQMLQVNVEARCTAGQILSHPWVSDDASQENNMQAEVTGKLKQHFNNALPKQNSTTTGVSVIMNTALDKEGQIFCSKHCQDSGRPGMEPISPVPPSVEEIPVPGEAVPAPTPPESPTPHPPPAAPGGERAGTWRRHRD
Chain of UniProt P51955 (whole entry, looked up): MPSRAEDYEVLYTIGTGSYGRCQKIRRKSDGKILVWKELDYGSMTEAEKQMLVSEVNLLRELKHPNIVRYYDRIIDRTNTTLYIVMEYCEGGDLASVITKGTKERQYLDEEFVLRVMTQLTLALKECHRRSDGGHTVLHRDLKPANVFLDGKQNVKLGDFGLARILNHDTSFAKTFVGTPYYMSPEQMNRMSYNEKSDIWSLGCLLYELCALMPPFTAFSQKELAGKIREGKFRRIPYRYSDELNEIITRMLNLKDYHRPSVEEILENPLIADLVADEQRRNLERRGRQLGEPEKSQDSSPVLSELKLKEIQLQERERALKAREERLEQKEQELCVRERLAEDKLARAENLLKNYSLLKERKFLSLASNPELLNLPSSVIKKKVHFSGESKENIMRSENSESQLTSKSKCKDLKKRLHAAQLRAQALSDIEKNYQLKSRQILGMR
Chain of UniProt Q8N4C8 (whole entry, looked up): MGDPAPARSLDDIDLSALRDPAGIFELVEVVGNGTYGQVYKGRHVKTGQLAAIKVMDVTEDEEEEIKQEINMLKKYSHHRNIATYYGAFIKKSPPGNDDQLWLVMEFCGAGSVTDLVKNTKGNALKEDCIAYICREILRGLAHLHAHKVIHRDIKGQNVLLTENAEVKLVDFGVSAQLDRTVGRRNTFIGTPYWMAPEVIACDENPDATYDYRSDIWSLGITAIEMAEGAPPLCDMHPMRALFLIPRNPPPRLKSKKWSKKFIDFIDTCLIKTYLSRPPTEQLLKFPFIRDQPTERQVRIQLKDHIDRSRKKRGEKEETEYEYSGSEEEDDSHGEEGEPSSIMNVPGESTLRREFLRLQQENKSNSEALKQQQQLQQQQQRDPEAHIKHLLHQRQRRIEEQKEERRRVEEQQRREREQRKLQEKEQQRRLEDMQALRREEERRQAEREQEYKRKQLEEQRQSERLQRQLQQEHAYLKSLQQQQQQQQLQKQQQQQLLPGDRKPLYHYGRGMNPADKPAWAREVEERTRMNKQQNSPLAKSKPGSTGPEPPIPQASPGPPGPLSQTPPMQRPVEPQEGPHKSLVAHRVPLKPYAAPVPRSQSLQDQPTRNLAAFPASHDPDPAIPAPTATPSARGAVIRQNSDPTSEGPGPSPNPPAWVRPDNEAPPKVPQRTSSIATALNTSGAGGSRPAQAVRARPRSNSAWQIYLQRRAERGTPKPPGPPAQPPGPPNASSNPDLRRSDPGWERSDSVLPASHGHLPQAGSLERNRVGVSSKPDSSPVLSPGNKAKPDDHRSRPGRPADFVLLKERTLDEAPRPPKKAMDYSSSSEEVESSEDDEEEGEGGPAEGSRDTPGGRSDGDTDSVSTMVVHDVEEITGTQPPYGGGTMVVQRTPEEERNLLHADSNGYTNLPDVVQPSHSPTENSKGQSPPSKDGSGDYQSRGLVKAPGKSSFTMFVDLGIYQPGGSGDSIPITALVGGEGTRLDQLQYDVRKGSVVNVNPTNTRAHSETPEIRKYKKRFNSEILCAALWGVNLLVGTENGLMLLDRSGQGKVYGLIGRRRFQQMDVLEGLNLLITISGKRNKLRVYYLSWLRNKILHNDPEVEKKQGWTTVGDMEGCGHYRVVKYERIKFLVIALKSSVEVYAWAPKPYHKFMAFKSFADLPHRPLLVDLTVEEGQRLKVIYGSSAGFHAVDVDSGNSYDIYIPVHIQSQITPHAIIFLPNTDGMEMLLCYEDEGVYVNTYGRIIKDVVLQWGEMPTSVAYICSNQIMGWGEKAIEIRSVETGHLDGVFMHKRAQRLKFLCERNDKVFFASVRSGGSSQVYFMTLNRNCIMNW
Chain of UniProt P32298 (whole entry, looked up): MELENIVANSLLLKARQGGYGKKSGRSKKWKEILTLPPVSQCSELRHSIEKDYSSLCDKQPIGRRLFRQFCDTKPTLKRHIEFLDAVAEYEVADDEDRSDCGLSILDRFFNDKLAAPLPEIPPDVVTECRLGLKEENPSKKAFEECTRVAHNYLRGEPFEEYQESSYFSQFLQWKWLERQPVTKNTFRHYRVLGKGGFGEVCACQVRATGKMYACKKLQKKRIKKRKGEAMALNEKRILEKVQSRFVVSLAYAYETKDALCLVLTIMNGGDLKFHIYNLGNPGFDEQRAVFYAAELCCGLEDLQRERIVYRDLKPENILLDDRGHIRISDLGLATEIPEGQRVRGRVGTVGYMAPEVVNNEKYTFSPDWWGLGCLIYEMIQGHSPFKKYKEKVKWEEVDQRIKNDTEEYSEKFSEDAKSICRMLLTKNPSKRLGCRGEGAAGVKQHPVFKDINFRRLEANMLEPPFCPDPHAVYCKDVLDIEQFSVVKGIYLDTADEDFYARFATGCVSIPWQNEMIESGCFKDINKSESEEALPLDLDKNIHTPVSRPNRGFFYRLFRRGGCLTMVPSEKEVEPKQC
Chain of UniProt Q13237 (whole entry, looked up): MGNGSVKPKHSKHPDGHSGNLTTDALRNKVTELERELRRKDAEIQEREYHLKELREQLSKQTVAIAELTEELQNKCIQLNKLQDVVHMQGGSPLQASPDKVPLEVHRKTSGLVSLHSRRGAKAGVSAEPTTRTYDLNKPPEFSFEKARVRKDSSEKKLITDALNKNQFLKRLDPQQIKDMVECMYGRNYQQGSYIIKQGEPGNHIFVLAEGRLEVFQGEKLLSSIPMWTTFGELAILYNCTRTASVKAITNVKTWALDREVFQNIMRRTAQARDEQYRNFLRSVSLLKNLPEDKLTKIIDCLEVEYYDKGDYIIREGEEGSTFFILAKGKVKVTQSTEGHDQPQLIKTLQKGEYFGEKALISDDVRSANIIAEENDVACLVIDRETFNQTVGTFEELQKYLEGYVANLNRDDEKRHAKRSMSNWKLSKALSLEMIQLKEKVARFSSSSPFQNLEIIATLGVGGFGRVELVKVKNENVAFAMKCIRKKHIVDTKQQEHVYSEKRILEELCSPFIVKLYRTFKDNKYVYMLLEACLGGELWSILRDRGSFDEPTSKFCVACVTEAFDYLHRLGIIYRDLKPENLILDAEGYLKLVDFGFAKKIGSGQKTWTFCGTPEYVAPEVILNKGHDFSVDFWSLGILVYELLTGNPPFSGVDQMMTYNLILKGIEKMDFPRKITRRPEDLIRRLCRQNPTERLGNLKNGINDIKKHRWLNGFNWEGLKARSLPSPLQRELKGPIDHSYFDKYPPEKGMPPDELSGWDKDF

Series 1 — technique: competition with immobilised ligand; tested at: 1 µM; endpoint: remaining binding
SMILES: O=C(O)[C@H]1[C@H](Cn2nnc3ccccc3c2=O)CC[C@@H]1C(=O)c1ccc(OCCC2CCOCC2)cc1
Receptor-interacting serine/threonine-protein kinase 4 (RIPK4, Homo sapiens, UniProt P57078); cell-free assay: 80%
Serine/threonine-protein kinase Nek2 (NEK2, Homo sapiens, UniProt P51955); cell-free assay: 100%
Serine/threonine-protein kinase 38-like (STK38L, Homo sapiens, UniProt Q9Y2H1); binding: 96%
Phosphatidylinositol 4-phosphate 5-kinase type-1 gamma (PIP5K1C, Homo sapiens, UniProt O60331); cell-free assay: 100%
Serine/threonine-protein kinase DCLK2 (DCLK2, Homo sapiens, UniProt Q8N568); cell-free assay: 79%
Activin receptor type-1B (ACVR1B, Homo sapiens, UniProt P36896); cell-free assay: 74%
Serine/threonine-protein kinase 38 (STK38, Homo sapiens, UniProt Q15208); cell-free assay: 88%
Macrophage colony-stimulating factor 1 receptor (CSF1R, Homo sapiens, UniProt P07333); cell-free assay: 81%
Rho-associated protein kinase 1 (ROCK1, Homo sapiens, UniProt Q13464); cell-free assay: 87%
Homeodomain-interacting protein kinase 3 (HIPK3, Homo sapiens, UniProt Q9H422); cell-free assay: 99%
Mitogen-activated protein kinase 7 (MAPK7, Homo sapiens, UniProt Q13164); cell-free assay: 100%
Protein kinase C theta type (PRKCQ, Homo sapiens, UniProt Q04759); cell-free assay: 80%
Aurora kinase B (AURKB, Homo sapiens, UniProt Q96GD4); cell-free assay: 100%
Phosphatidylinositol 4,5-bisphosphate 3-kinase catalytic subunit alpha isoform (PIK3CA, Homo sapiens, UniProt P42336); cell-free assay: 100%

Series 2 — SMILES: COc1cccc(-c2cc(=O)c3ccccc3o2)c1N; observed: enzyme activity; action: inhibitor; tested at: 0.5 µM; baseline: control; endpoint: remaining activity
Tyrosine-protein kinase TXK (TXK, Homo sapiens, UniProt P42681): 94.6%
Serine/threonine-protein kinase DCLK2 (DCLK2, Homo sapiens, UniProt Q8N568): 88.3%
Serine/threonine-protein kinase tousled-like 2 (TLK2, Homo sapiens, UniProt Q86UE8): 84.8%
Dual specificity protein kinase CLK3 (CLK3, Homo sapiens, UniProt P49761): 95.4%
Calcium/calmodulin-dependent protein kinase type IV (CAMK4, Homo sapiens, UniProt Q16566): 104%
Cyclin-dependent kinase 1, with cyclin A (CDK1, Homo sapiens, UniProt P06493): 83.8%
Serine/threonine-protein kinase PLK3 (PLK3, Homo sapiens, UniProt Q9H4B4): 98%
cGMP-dependent protein kinase 2 (PRKG2, Homo sapiens, UniProt Q13237): 101%
Dual specificity protein kinase CLK4 (CLK4, Homo sapiens, UniProt Q9HAZ1): 86.3%
Serine/threonine-protein kinase Nek3 (NEK3, Homo sapiens, UniProt P51956): 102%
G protein-coupled receptor kinase 4 (GRK4, Homo sapiens, UniProt P32298): 104%
Mitogen-activated protein kinase 14 (MAPK14, Homo sapiens, UniProt Q16539): 76.2%
Hepatocyte growth factor receptor (MET, Homo sapiens, UniProt P08581): 112%
Misshapen-like kinase 1 (MINK1, Homo sapiens, UniProt Q8N4C8): 96.2%

Series 3 — action: antagonist; endpoint: pIC50
Target: Beta-1 adrenergic receptor (ADRB1, Homo sapiens, UniProt P08588)
Chain of UniProt P08588 (whole entry, looked up): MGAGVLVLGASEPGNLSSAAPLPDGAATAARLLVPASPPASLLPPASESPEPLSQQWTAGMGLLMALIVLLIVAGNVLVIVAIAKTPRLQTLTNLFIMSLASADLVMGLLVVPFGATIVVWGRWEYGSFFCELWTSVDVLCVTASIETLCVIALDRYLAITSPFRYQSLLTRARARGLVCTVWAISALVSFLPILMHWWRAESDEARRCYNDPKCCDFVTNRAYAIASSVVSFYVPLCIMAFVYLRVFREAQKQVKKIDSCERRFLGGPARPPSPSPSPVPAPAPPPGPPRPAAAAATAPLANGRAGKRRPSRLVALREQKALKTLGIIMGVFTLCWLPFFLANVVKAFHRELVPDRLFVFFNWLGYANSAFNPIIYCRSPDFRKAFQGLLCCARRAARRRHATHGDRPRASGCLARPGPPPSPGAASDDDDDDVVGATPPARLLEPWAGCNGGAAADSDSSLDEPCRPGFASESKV
CCN(Cc1cccs1)c1ncnc2ccc(-c3ccc4c(c3)OCO4)cc12: ≤ 4.00
CCN1CC(C(=O)NCC2CCN(c3ccccc3OC)C2)CC1=O (centres unmarked): ≤ 4.00
c1ccc(-c2n[nH]cc2-c2ccnc3ccccc23)nc1: ≤ 4.00
COc1cc(OC)c2c(OC)c(-c3ccc4c(c3)OCO4)c(=O)oc2c1: ≤ 4.00
Brc1ccc(-c2noc(-c3c[nH]nc3-c3ccccc3)n2)cc1: ≤ 4.00
OC(c1ccccc1)c1cn(C2CCN(Cc3cnc4ccccc4c3)CC2)nn1 (centres unmarked): 4.80
c1cc(-c2cc3c(ccn3Cc3ccncc3)c(N3CCOCC3)n2)cc(N2CCOCC2)c1: ≤ 4.00
CC#CCn1cc2c3c(cccc31)[C@H](CC(C)C)N[C@H](C(=O)NCc1ccccc1)C2: ≤ 4.00
FC(F)(F)c1nnc2ccc(N3CCCN(c4cnc5ccccc5n4)CC3)nn12: ≤ 4.00
Cc1noc2c(-c3cccnc3Nc3ccncc3)cc(-c3ccccc3)nc12: ≤ 4.00
Fc1ccc(-c2nnc3ccc(Nc4ccc(N5CCOCC5)cc4)nn23)nc1: ≤ 4.00
COc1ccccc1N1CCN(C(=O)C(C)CN)CC1 (centres unmarked): ≤ 4.00
O=C(c1cc(-c2ccccc2)nc2ccccc12)N1CCc2c(nc[nH]c2=O)C1: ≤ 4.00
Cc1ccsc1-c1n[nH]c2ncc(-c3ccc(F)cc3)nc12: ≤ 4.00
OC(c1ccc2c(c1)CCO2)c1nc(Nc2ccccc2)n[nH]1 (centres unmarked): ≤ 4.00

Series 4 — observed: enzyme activity; action: inhibitor; tested at: 10 µM; endpoint: inhibition
Target: Calcium/calmodulin-dependent protein kinase type II subunit alpha (CAMK2A, Homo sapiens, UniProt Q9UQM7)
Chain of UniProt Q9UQM7 (whole entry, looked up): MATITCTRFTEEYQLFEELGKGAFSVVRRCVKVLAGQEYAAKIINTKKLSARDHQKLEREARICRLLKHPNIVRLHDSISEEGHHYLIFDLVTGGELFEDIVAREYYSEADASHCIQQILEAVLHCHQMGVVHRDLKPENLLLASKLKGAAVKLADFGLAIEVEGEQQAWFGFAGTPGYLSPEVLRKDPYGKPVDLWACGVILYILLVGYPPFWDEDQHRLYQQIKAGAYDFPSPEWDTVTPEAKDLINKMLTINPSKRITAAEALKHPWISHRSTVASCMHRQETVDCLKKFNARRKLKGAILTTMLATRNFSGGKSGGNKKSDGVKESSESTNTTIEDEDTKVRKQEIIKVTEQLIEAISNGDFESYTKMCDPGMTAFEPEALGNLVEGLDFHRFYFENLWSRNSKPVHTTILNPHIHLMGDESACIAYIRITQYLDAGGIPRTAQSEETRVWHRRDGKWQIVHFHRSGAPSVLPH
C[C@@H]1O[C@@H](OC[C@H]2O[C@@H](Oc3cc(O)c4c(c3)O[C@H](c3ccc(O)cc3)CC4=O)[C@H](O)[C@@H](O)[C@@H]2O)[C@H](O)[C@H](O)[C@H]1O: -28%
CC(C)NCC(O)COc1ccc(CC(N)=O)cc1 (centres unmarked): -13%
C[C@H](CCC(=O)O)[C@H]1CC[C@H]2[C@@H]3CC[C@@H]4C[C@H](O)CC[C@]4(C)[C@H]3C[C@@H](O)[C@]12C: -43%
CCCC(=O)O[C@]1(C(=O)CO)CC[C@H]2[C@@H]3CCC4=CC(=O)CC[C@]4(C)[C@H]3[C@@H](O)C[C@@]21C: 4%
COC1=CC(=O)C=C(OC)C1=O: -3%
COc1c2ccoc2cc2oc(C)cc(=O)c12: -16%
C[C@@H]1O[C@@H](O[C@H]2[C@H](Oc3cc(O)c4c(c3)O[C@H](c3ccc(O)c(O)c3)CC4=O)O[C@H](CO)[C@@H](O)[C@@H]2O)[C@H](O)[C@H](O)[C@H]1O: -16%
Cc1nc2n(c(=O)c1CCN1CCC(c3noc4cc(F)ccc34)CC1)CCCC2: -4%
O=Cc1ccc(O)c(O)c1: 6%
O=C(O)CCCCCCCCCC(=O)O: -23%
COc1ccc(/C=C/C(=O)c2ccc(OC)c3c2OC(C)(C)C=C3)cc1: -2%
CN(C)CCCN1c2ccccc2CCc2ccc(Cl)cc21: 3%
N[C@@H](CCSC[C@H](N)C(=O)O)C(=O)O: -7%

Excerpt of the above (series 3):
FC(F)(F)c1nnc2ccc(N3CCCN(c4cnc5ccccc5n4)CC3)nn12: ≤ 4.00
Cc1noc2c(-c3cccnc3Nc3ccncc3)cc(-c3ccccc3)nc12: ≤ 4.00
Fc1ccc(-c2nnc3ccc(Nc4ccc(N5CCOCC5)cc4)nn23)nc1: ≤ 4.00
COc1ccccc1N1CCN(C(=O)C(C)CN)CC1 (centres unmarked): ≤ 4.00
O=C(c1cc(-c2ccccc2)nc2ccccc12)N1CCc2c(nc[nH]c2=O)C1: ≤ 4.00
